Assay results of several laboratories.
Compare with care: the assays were run in different laboratories. “And” joins repeats or separate records; there may be more than shown. ± gives the spread as reported.

Substance	tested on	assay	system	setting	scale	measurement	result
Cc1cn([C@H]2C[C@H](N=[N+]=[N-])[C@@H](CO)O2)c(=O)[nH]c1=O	HIV-1	viral replication	human PBMC, subtype E 93TH073, dual-tropic clinical isolate	–	–	EC50	10.2 ± 6.36 nM
RFYFYTSKTTVASLI	human CD4 T cells	AIM	peptide	–	–	responding donors	8%
COc1ccc(Nc2cc(C(=O)NCCCN(C)Cc3ccccc3)c3ccccc3n2)cc1	SARS-CoV-2	cytopathic effect, cell-based CPE	USA_WA1/2020	round 2, 5-point dilution	–	maximal response	65.9%
Cc1cc(/C=C/C#N)cc(C)c1Nc1nc(Nc2ccc(/C=C/C#N)cc2)ncc1N	HIV-1	viral replication, single-round infection	RT mutant P236L	–	–	EC50	0.6 ± 0.1 nM
CN1CCN(c2ncnc3ccc(-c4cccc5[nH]ccc45)cc23)CC1	Lassa mammarenavirus	viral replication	Huh-7	10 µM, 72 h	–	remaining activity	29%
COc1ccc2cc3[n+](cc2c1OC)CCc1cc2c(cc1-3)OCO2	SARS-CoV-2 spike protein	–	Vero C1008	10 µg/mL	–	inhibition	94 ± 2.1%
LPYGK	–	DSC	peptide, 7/3 SOPC/cholesterol bilayers	5 mol%, pH 7.40, SOPC chain melting transition	–	transition enthalpy	0.8 kcal/mol
CNC(=O)[C@@H](NC(=O)[C@H](CC(C)C)[C@H](O)C(=O)NO)C(C)(C)C	Daboia russelii venom proteases (SVMP)	protease activity, inhibitor	RJ population	1 µM, with: azocasein substrate	relative to: venom alone	remaining activity	91.6% and 88.6% and 84.1%
Cc1nc2n(n1)CC(=O)N[C@@H](C(C)C)CN(C(=O)CCC(C)C)CC(=O)N[C@@H](CC(C)C)c1nc(cs1)C(=O)N[C@H]2Cc1ccccc1	Lassa mammarenavirus	viral replication	Huh-7	10 µM, 72 h	–	remaining activity	68%
CCCC(=O)OCSc1ccccc1C(=O)NCCC(N)=O	HIV-1	viral replication	human PBMC, subtype E 93TH051, CCR5-tropic clinical isolate	–	–	EC50	5910 ± 2390 nM
TDYKHWPQIAQFAPS	human CD4 T cells	AIM	peptide	–	–	responding donors	8%
CC1CCN(CCCNC(=O)c2cc(Sc3ccc(F)cc3)nc3ccccc23)CC1	SARS-CoV-2	cytopathic effect, cell-based CPE	USA_WA1/2020	round 2, 5-point dilution	–	maximal response	92.8%
C/C=C1\NC(=O)C(C(C)O)NC(=O)C(CCCN)NC(=O)C(CCO)NC(=O)CNC(=O)C(CCN)NC(=O)C(NC(=O)CC(O)CCCCCCCCCCC)COC(=O)C(C(O)CCl)NC(=O)C(C(O)C(=O)O)NC1=O (centres unmarked)	–	calcein leakage	DOPC/DOPG/CHOL liposomes	concentration not given, with: 40 mM CaCl2	–	fusion time constant	31 ± 7 min
ASMPTTIAK	–	AIM	peptide, CD8+ T cells from PBMC, human donors	HLA-A*30:01 restricted, unit not given	relative to: positive over tested donors	frequency of responding donors	100
Cc1ccc2nc(Cl)c3cc(C(=O)NCCCN4CCC(C)CC4)sc3c2c1	SARS-CoV-2	cytopathic effect, cell-based CPE	USA_WA1/2020	round 2, 5-point dilution	–	AC50	3550 nM
Cc1cc(/C=C/C#N)cc(C)c1Nc1ccnc(Nc2ccc(C#N)cc2)n1	HIV-1	viral replication, single-round infection	RT mutant P236L	–	–	EC50	0.2 nM
CSc1ccc2c(c1)C(N1CCN(C)CC1)Cc1ccccc1S2.O=C(O)/C=C\C(=O)O (centres unmarked)	HeLa	Ebola VLP entry	–	–	–	maximal inhibition	99%
O=C(Nc1cccc(Cl)c1)C1CCCN(Cc2cccc(-c3ccc(F)cc3F)c2)C1 (centres unmarked)	SARS-CoV-2	cytopathic effect	USA_WA1/2020	retest, 8-point, duplicates	–	maximum response	7.04%
Cc1cc(/C=C/C#N)cc(C)c1-n1cnc2cnc(Nc3ccc4cc(C#N)ccc4c3)nc21	HIV-1	viral replication, single-round infection	RT mutant Y181I	–	–	EC50	1640 ± 168 nM
LGVYYHKNNKSWMES	human CD4 T cells	AIM	peptide	–	–	responding donors	9%
CC[C@H](OC(C)=O)C(C[C@H](C)NC)(c1ccccc1)c1ccccc1	HeLa	Ebola VLP entry	–	–	–	maximal inhibition	102%

Substance	tested on	assay	system	setting	scale	measurement	result
Cc1cc(/C=C/C#N)cc(C)c1Nc1nc(Nc2ccc3cc(C#N)ccc3c2)ncc1N	HIV-1	viral replication, single-round infection	RT mutant V106A	–	–	EC50	13.7 ± 3.4 nM
CCCN(CCC)CCNC(=O)c1cc(Sc2ccc(Cl)cc2)nc2ccccc12	SARS-CoV-2	cytopathic effect	USA_WA1/2020	first round 5-point	–	maximum response	86.9%
CC(C)OC(=O)OCOP(=O)(CO[C@H](C)Cn1cnc2c(N)ncnc21)OCOC(=O)OC(C)C	HIV-1 M184V	–	MT4	–	–	IC50	423 ± 113 nM
SALEPLVDLPIGINI	human CD4 T cells	AIM	peptide	–	–	responding donors	9%
O=C(NCc1ccccc1Cl)C1CCCN(Cc2cccc(-c3ccc(F)cc3F)c2)C1 (centres unmarked)	SARS-CoV-2	cytopathic effect	USA_WA1/2020	round 1, 5-point	–	efficacy	52.1%
HCANFNVLFSTVFPP	human CD4 T cells	AIM	peptide	–	–	responding donors	7%
CCN1CC(=O)N[C@@H](CC(C)C)c2nc(cs2)C(=O)N[C@@H](Cc2ccccc2)c2nc(C)nn2CC(=O)N[C@@H](C(C)C)C1	Lassa mammarenavirus	viral replication	Huh-7	10 µM, 72 h	–	remaining activity	92%
COc1ccc(N2CCN(CCCNC(=O)c3cc(Nc4ccc(OC)cc4OC)nc4ccccc34)CC2)cc1	SARS-CoV-2	cytopathic effect	USA_WA1/2020	round 2, 5-point	–	efficacy	80.1%
Cc1cn2cc(C(=O)N3CCN(c4nc5ccccc5s4)CC3)ccc2n1	Lassa mammarenavirus	viral replication	Huh-7	10 µM, 72 h	–	remaining activity	48%
Cn1c(Cn2ccc(C(F)(F)F)c(Oc3cc(Cl)cc(C#N)c3)c2=O)n[nH]c1=O	HIV-1	viral replication, single-round infection	RT mutant K101P/V179I	–	–	EC50	1.5 ± 0.4 nM
Cc1ccccc1-c1cccc(CN2CCN(C3CCN(C(C)C)CC3)C(CCO)C2)c1 (centres unmarked)	Lassa mammarenavirus	viral replication	Huh-7	10 µM, 72 h	–	remaining activity	37%
NC(=O)CCNC(=O)c1ccccc1S	HIV-1	viral replication	human PBMC, subtype A 92RW009, CCR5-tropic clinical isolate	–	–	EC50	4530 ± 520 nM
CCN(CC)CCCNC(=O)c1ccc(-c2nc(CN3CCc4ccccc43)c(C)o2)cc1	SARS-CoV-2	cytopathic effect	USA_WA1/2020	retest, 8-point, duplicates	–	efficacy	81.8%
YSRYRIGNYKLNTDH	human CD4 T cells	AIM	peptide	–	–	responding donors	15%
COP(=S)(OC)Oc1ccc([N+](=O)[O-])c(C)c1	rat CYP2C	tolbutamide hydroxylation	liver microsomes	concentration not given	–	Vmax	1.01 ± 0.22 nmol/min/mg protein
O=C1Nc2ccc(Cl)cc2[C@@](C#CC2CC2)(C(F)(F)F)O1	HIV-1	viral replication, single-round infection	RT mutant E138K/M184I	–	–	EC50	2.2 ± 0.4 nM
FSNSGSDVLYQPPQT	human CD4 T cells	AIM	peptide	–	–	responding donors	8%
N#CC(C#N)=NNc1cccc(Cl)c1	Escherichia coli	tetracycline MIC, checkerboard	tetracycline-resistant (pBR322)	1 µM, with: tetracycline	relative to: MIC alone over combination	fold enhancement	1 fold
CCc1c(C(=O)C(N)=O)c2c(OCC(=O)O)cccc2n1Cc1ccccc1	C2C12	–	–	1 µM, with: MH venom	relative to: venom alone	viability difference	5.08%
Nc1ncnc2c([C@@H]3N[C@H](CO)[C@@H](O)[C@H]3O)c[nH]c12	Zaire ebolavirus	antibody staining	human macrophages	12.5 µM	–	antigen-positive cells	65.2%
